Measurements collected from several papers.
Each line is one published result; not all experiments were run side by side. Numbers after ± are the reported error.

SMILES | cell line | test | setting | endpoint | result
OC[C@H]1[C@@H](O)[C@@H](O)CN1Cc1ccc(Br)cc1 | K562-Tax | cell growth or viability, MTS | 72 h | IC50 | 125 µM
O=C(/C=C/c1cccc(S(=O)(=O)Nc2ccc(F)cc2F)c1)NO | MOPC-315 | cell growth | 24 h | IC50 | 0.784 ± 0.198 µM
Oc1ccc(C(=NNc2ccccc2)c2ccc(O)cc2)cc1 | SNU-1 (KRAS G12D) | cell viability, CellTiter-Glo | 72 h | IC50 | 26.6 ± 9.9 µM
C=C(C)C(=O)Nc1ccc(-c2c(C#Cc3cc(OC)cc(OC)c3)c3c(N)ncnc3n2C)cc1 | JMSU-1 | cell growth or viability, ATP luminescence | 96 h | IC50 | 0.45 µM
C1=[N+]2CCCC[N+]3=Cc4ccc5[n]4[Au-]23[n]2c1ccc2-c1nc2ccccc2nc1-5.F[P-](F)(F)(F)(F)F | ovarian cancer cell lines | – | NCI60 panel mean | IC50 | 19 µM
O=C1NCC(Cc2ccccc2)N(CC2CCCN2CC(CC2CCCCC2)N2CC(Cc3ccc(O)cc3)N(CCc3ccccc3)C(=O)C2=O)C1=O (stereo not shown) | MEF | cell growth or viability, ATP luminescence | 72 h | IC50 | > 100 µM
C=CC(=O)Nc1ccc(F)c(-c2ncnc3[nH]cc(C(=O)OCC)c23)c1 | mouse CD4 T-cell blasts | cell proliferation, 3H-thymidine uptake | 24 to 48 h, added: IL-2 | IC50 | 0.0037 µM
Cc1cc2cc(C(=O)N(Cc3ccc(C(F)(F)F)cn3)[C@H](C)c3ncccn3)ccc2nc1N | HCT-116 MTAP-deleted | – | 144 h | IC50 | 0.04 µM
COc1cc(CNC(=O)C[C@H](C)CCC=C(C)C)ccc1OCc1cn(-c2ccccc2Cl)nn1 | OVCAR-3 ovarian cancer cells | SRB | 10 µM, 48 h | growth percent | 83.6%
COC(=O)CNc1cc(CS(=O)(=O)c2ccc3ccccc3c2)ccc1OC | SCC-15 | cell growth or viability, MTS | 48 h | IC50 | 0.154 µM
COc1cc(OC)cc(C2=C3C(C)=C(I)C(/C=C/c4c[nH]c5ccc([N+](=O)[O-])cc45)=[N+]3[B-](F)(F)n3c(/C=C/c4c[nH]c5ccc([N+](=O)[O-])cc45)c(I)c(C)c32)c1 | HEp-2 | phototoxicity, CellTiter-Blue | added: light 1.5 J/cm^2 | IC50 | > 100 µM
CCC(C)C1OC(=O)C(C)(C)C(=O)C(Cc2ccccc2)OC(=O)C(C(C)C)OC(=O)C(NC(=O)c2cccc(O)c2)C(C)OC1=O (stereo not shown) | HCT-8 | cell viability, CCK-8 | 72 h | IC50 | > 20 µM
CCOC(=O)c1[nH]c(C)c(/C=C/C2=[N+]3C(=C(c4cc(OC)cc(OC)c4)c4c(C)c(I)c(/C=C/c5c(C)[nH]c(C(=O)OCC)c5C)n4[B-]3(F)F)C(C)=C2I)c1C | HEp-2 | cell growth or viability, resazurin | 24 h, dark | IC50 | > 400 µM
COc1cc(CNC(=O)C[C@H](C)CCC=C(C)C)ccc1OCc1cn(-c2cccc(C(F)(F)F)c2)nn1 | SW-620 | SRB | 10 µM, 48 h | growth percent | 38.7%
CSc1nc(Nc2ccc(C(=O)N/N=C/c3c(Cl)cccc3Cl)cc2)c(C#N)c(-c2ccccc2)n1 | HCT-116 and MCF7 | cell growth, MTT | range over compound group | IC50 | 1.14 to 10.3 µM
[Cl][Pd-2]1([Cl])[N+](=Cc2ccc[nH]2)Cc2cccc[n+]21 | MCF-12A | cell growth or viability, MTT | 24 h | IC50 | 24.9 µg/mL
COC(=O)[C@H]1[C@H]2C[C@H]3O[C@@]4(CCN3C[C@H]2C[C@@H](OC(=O)c2cc(OC)c(OC)c(OC)c2)[C@@H]1OC)C(=O)Nc1cc(OC)ccc14 | NALM-6 | cell growth or viability, trypan blue | 72 h | IC50 | 24.4 µM
Cc1ccc(NS(=O)(=O)c2cccc(/C=C/C(=O)NO)c2)cc1 | MOPC-315 | cell growth | 24 h | IC50 | 0.159 ± 0.046 µM
[Ru+2].c1ccc(-c2cccc(-c3ccccn3)n2)nc1.c1ccc(-c2ccccn2)nc1.c1cnccn1 | HL-60 | cell growth or viability | dark | IC50 | > 100 µM
CN1CCC(N[C@@H]2CCc3[nH]c4c(C(N)=O)ccc(-c5ccccc5Cl)c4c3C2)CC1 | colorectal cancer organoid sample C | cell growth, CellTiter-Glo | 6 days | IC50 | 0.02 µM
Cc1cc(C#N)cc(C)c1Oc1cc(Nc2ccc(C#N)cc2)nc2cnccc12 | S102 | – | 48 h | IC50 | > 128 µM
Cn1c(SCC(=O)N2CCC(=C3c4ncccc4CCc4cc(Cl)cc(Br)c43)CC2)nnc1-c1ccccc1 | HOP-62 | cell growth or viability, SRB | – | IC50 | > 120 µM
N=C(N/N=C/c1ccc(F)cc1)N/N=C/c1ccc(F)cc1 | hTERT-HPNE | cell growth, crystal violet | 72 h | IC50 | 50 ± 5.4 µM

SMILES | cell line | test | setting | endpoint | result
Fc1ccccc1/C=C/c1nc2ccccc2nc1N1CCOCC1 | B16-F10 | cell growth or viability, MTT | 72 h | IC50 | 1.18 µM
CC(=O)Nc1ccc(OC(=O)CCC(=O)[O][Pt-2]23([O]C(=O)CCC(=O)Oc4ccc(NC(C)=O)cc4)([NH2+][C@@H]4CCCC[C@H]4[NH2+]2)[O]C(=O)C(=O)[O]3)cc1 | 4T1 | cell growth or viability, MTT | 48 h | IC50 | 1.06 µM
CCCCCCCCC=CCCCCCCCC(=O)OCC1OC(n2ccc(N)nc2=O)C(F)(F)C1O (stereo not shown) | C26-A (mouse) | cell growth, SRB | 72 h | IC50 | 0.0015 ± 0.0006 µM
Nc1cnn2ccc(-c3ccc4c(c3)CN([C@H]3CCC(=O)NC3=O)C4=O)nc12 | MOLM-13 | cell growth, CellTiter luminescence | 72 h | IC50 | > 0.1 µM
COC(=O)[C@H]1[C@H]2C[C@H]3O[C@@]4(CCN3C[C@H]2C[C@@H](OC(=O)c2cc(OC)c(OC)c(OC)c2)[C@@H]1OC)C(=O)Nc1cc(OC)c(Br)cc14 | NALM-6 | cell growth or viability, trypan blue | 72 h | IC50 | 4.02 µM
CC(C)c1cccc(C(C)C)c1-n1ccn(-c2c(C(C)C)cccc2C(C)C)c1=[Se].[Cl][Au] | H157 lung carcinoma cells | cell viability, MTT | 72 h | IC50 | 3 ± 0.7 µM
O=C1CC[C@H](N2Cc3cc(-c4cnn5ccc(NC6CCOCC6)nc45)ccc3C2=O)C(=O)N1 | MOLM-13 | cell growth, CellTiter luminescence | 72 h | IC50 | > 0.1 µM
CC1(C)c2ccccc2-c2ccc(-c3cn(-c4ccc(-c5cc(-c6ccccn6)nc(-c6ccccn6)c5)cc4)nn3)cc21 | NHDF normal human fibroblasts | cytotoxicity, MTS | 72 h | IC50 | > 25 µM
CC(C)=CCc1c2c(c(O)c3c(=O)c(-c4ccc(O)cc4O)coc13)C=CC(C)(C)O2 | KKU100 | cell growth or viability, MTT | 24 h | IC50 | 23.8 µM
Cc1c(C)n(-c2c(C(C)C)cccc2C(C)C)c(=[Se])n1-c1c(C(C)C)cccc1C(C)C.[Cl][Au] | H157 lung carcinoma cells | cell viability, MTT | 72 h | IC50 | 0.4 ± 0.1 µM
C=CC(=O)Nc1cc(Nc2nccc(-c3c(-c4cccc(F)c4)n(C)c4ccccc34)n2)c(OC)cc1N(C)CCN(C)C | NCI-H1975 | cell growth or viability, MTT | 72 h | IC50 | 0.044 µM
COc1c(O)cc2oc3c(Br)c(O)c(CC=C(C)C)c(O)c3c(=O)c2c1CC=C(C)C | BEAS-2B | cell growth or viability | – | IC50 | > 40 µM
Cc1cc(C=O)cc(C)c1Oc1cc(Nc2ccc(C#N)cc2)nc2cnccc12 | S102 | – | 48 h | IC50 | > 127 µM
C/C1=C/C[C@H]2[C@@H]3[C@@H]([C@]4(C)CO4)CC[C@@]3(C)CC[C@]2(C)C[C@H]2[C@@H](C)CC[C@@H]12 | CT26 | cell growth or viability, MTT | 72 h | IC50 | 60 µM
C=CC(=O)N1CCC(c2c(-c3ccc(OC)cc3)c3c(N)ncnc3n2C)C1 (stereo not shown) | JMSU-1 | cell growth or viability, ATP luminescence | 96 h | IC50 | 0.96 µM
N=C(N/N=C/c1ccc2ccc3cccc4ccc1c2c34)N/N=C/c1ccc2ccc3cccc4ccc1c2c34 | hTERT-HPNE | cell growth, crystal violet | 72 h | IC50 | 284 ± 54 µM
CC1(C)O[C@@H]1CC[C@](C)(O)[C@H]1CC[C@]2(C)[C@@H]1CC[C@@H]1[C@@]3(C)CCC(=O)C(C)(C)[C@@H]3CC[C@]12C | SCM-1 | cytotoxicity, MTT | – | IC50 | > 30 µM
C#CCN(C(=O)OCc1ccc(B2OC(C)(C)C(C)(C)O2)cc1)[c-]1cccc1.[Fe+2].c1cc[cH-]c1 | BL2 | cell growth or viability, MTT | 48 h | IC50 | 20.1 µM
CC1=C2[O][Ru-]([Cl])[O+]=C2C=CN1CCCN1C=CC2=[O+][Ru-]([Cl])[O]C2=C1C.Cc1ccc(C(C)C)cc1.Cc1ccc(C(C)C)cc1 | A-427 | cell growth or viability, crystal violet | 96 h | IC50 | 5.2 µM
CN1CCC2(CC1)C/C(=N\NC(=O)Nc1ccccc1)c1ccccc1O2 | MCF7, HCT-116, PC-3, A549 | cell growth, MTT | range over cell lines | IC50 | 1.15 to 9.09 µM
COc1cc(OC)cc(C2=C3C(C)=C(I)C(/C=C/c4cccs4)=[N+]3[B-](F)(F)n3c(/C=C/c4cccs4)c(I)c(C)c32)c1 | HEp-2 | phototoxicity, CellTiter-Blue | added: light 1.5 J/cm^2 | IC50 | > 100 µM
Cc1nn(-c2ccc(S(=O)(=O)N[C@@H](CO)CC(C)C)cc2)c2nn3nnnc3nc12 | human Lymphocyte | cell growth or viability, MTT | 72 h | IC50 | 0.87 µM
COc1cc(N(C)CCN(C)C)c(NC(=O)/C=C/c2ccc3ccccc3c2)cc1Nc1nccc(-c2cn(C)c3ccccc23)n1 | NCI-H1975 | cell growth or viability, MTT | 72 h | IC50 | 0.577 µM

Repeated from above:
SMILES | cell line | test | setting | endpoint | result
C=CC(=O)Nc1cc(Nc2nccc(-c3c(-c4cccc(F)c4)n(C)c4ccccc34)n2)c(OC)cc1N(C)CCN(C)C | NCI-H1975 | cell growth or viability, MTT | 72 h | IC50 | 0.044 µM
Cc1cc(C#N)cc(C)c1Oc1cc(Nc2ccc(C#N)cc2)nc2cnccc12 | S102 | – | 48 h | IC50 | > 128 µM
C=CC(=O)N1CCC(c2c(-c3ccc(OC)cc3)c3c(N)ncnc3n2C)C1 (stereo not shown) | JMSU-1 | cell growth or viability, ATP luminescence | 96 h | IC50 | 0.96 µM
COC(=O)[C@H]1[C@H]2C[C@H]3O[C@@]4(CCN3C[C@H]2C[C@@H](OC(=O)c2cc(OC)c(OC)c(OC)c2)[C@@H]1OC)C(=O)Nc1cc(OC)ccc14 | NALM-6 | cell growth or viability, trypan blue | 72 h | IC50 | 24.4 µM
COc1cc(OC)cc(C2=C3C(C)=C(I)C(/C=C/c4cccs4)=[N+]3[B-](F)(F)n3c(/C=C/c4cccs4)c(I)c(C)c32)c1 | HEp-2 | phototoxicity, CellTiter-Blue | added: light 1.5 J/cm^2 | IC50 | > 100 µM
